# Measured values collected from several papers.
# Numbered parts are unrelated; each lists some results of a single study. Values joined by “and” are separate records of one study, mostly repeats; a detail may differ.
# Chain of UniProt Q8TDX7 (whole entry, looked up): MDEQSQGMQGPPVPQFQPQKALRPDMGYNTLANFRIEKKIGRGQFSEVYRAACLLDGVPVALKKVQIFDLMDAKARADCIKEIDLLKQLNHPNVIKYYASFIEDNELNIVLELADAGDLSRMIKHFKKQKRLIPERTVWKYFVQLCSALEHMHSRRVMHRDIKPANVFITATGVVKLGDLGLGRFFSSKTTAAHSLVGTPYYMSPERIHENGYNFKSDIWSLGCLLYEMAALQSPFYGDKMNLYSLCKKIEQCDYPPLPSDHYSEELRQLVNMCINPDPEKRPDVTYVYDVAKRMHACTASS
# Chain of UniProt Q8WXR4 (whole entry, looked up): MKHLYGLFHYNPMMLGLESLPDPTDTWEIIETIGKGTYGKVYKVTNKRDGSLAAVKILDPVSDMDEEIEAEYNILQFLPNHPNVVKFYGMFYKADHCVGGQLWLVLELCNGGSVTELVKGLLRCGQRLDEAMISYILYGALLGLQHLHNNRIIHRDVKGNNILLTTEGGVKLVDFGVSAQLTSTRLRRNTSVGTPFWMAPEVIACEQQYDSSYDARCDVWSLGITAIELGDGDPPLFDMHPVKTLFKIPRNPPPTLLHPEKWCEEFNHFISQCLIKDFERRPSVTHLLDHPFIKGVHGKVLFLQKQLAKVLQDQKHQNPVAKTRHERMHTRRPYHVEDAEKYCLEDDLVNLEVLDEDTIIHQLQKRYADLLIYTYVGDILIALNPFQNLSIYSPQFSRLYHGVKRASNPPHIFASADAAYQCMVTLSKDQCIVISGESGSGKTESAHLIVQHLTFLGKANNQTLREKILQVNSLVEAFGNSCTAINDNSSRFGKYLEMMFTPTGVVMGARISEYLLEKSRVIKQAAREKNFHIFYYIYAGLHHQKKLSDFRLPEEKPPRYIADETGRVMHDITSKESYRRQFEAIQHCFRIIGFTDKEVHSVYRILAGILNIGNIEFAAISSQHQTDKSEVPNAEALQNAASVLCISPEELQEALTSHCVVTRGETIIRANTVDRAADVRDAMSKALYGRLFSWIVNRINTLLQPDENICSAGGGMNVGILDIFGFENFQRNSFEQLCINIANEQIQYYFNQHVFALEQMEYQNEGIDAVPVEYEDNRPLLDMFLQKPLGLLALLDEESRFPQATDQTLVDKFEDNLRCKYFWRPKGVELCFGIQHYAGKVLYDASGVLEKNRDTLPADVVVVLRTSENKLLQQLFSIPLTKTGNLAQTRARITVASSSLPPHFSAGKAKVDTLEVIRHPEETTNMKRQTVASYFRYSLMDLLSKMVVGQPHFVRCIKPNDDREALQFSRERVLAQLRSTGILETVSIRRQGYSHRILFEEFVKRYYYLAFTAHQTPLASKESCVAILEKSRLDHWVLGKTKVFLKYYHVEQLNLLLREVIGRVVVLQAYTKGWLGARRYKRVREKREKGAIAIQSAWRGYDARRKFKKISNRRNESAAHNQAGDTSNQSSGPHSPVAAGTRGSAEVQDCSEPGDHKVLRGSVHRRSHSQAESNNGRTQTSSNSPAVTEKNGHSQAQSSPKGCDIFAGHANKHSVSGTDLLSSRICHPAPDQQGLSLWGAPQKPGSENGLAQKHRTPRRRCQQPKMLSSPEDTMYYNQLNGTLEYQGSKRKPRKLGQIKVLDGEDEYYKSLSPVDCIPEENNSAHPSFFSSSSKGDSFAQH
# Chain of UniProt Q14164 (whole entry, looked up): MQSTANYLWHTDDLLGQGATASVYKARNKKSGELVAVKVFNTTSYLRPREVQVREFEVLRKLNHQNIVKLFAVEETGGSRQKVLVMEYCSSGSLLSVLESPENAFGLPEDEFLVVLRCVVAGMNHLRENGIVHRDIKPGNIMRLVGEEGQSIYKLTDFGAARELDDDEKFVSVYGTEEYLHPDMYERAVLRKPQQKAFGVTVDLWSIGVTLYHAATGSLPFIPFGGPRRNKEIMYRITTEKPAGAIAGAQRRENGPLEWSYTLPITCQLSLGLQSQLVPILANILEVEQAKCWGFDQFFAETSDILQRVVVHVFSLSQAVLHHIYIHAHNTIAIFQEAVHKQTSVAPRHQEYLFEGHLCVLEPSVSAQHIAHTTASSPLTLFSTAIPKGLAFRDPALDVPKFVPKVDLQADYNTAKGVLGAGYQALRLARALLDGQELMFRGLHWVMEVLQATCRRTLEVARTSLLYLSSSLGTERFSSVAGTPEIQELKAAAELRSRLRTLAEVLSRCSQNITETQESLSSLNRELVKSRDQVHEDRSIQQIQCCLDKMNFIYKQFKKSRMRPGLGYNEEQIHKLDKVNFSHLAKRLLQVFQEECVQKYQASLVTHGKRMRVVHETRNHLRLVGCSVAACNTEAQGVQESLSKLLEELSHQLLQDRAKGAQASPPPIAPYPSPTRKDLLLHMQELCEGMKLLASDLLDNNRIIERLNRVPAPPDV
# Chain of UniProt Q13163 (whole entry, looked up): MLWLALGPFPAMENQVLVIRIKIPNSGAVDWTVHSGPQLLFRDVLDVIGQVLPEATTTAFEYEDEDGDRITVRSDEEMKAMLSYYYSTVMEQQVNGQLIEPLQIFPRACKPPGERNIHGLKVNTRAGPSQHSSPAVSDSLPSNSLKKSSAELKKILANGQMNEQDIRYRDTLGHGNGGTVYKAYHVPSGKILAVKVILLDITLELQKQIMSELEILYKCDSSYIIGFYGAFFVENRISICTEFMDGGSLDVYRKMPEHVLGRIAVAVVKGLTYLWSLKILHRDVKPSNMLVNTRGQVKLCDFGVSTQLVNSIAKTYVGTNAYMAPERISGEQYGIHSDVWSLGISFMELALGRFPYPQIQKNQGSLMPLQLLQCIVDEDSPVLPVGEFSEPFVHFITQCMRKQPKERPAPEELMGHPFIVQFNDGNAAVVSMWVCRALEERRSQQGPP
# Chain of UniProt Q86Y07 (whole entry, looked up): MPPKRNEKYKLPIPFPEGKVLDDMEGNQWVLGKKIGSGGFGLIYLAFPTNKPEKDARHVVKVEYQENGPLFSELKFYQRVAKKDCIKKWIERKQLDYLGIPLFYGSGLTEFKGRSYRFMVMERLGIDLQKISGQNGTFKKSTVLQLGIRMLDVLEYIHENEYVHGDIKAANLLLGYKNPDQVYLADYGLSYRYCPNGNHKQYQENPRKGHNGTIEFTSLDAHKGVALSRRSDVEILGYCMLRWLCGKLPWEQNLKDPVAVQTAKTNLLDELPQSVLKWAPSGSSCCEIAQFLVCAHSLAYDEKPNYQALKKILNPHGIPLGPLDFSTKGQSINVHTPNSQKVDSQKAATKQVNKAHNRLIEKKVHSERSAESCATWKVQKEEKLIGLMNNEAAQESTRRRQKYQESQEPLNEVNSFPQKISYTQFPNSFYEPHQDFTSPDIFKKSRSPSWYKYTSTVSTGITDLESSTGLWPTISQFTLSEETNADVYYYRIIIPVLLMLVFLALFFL
# Chain of UniProt P10721 (whole entry, unmodified, looked up): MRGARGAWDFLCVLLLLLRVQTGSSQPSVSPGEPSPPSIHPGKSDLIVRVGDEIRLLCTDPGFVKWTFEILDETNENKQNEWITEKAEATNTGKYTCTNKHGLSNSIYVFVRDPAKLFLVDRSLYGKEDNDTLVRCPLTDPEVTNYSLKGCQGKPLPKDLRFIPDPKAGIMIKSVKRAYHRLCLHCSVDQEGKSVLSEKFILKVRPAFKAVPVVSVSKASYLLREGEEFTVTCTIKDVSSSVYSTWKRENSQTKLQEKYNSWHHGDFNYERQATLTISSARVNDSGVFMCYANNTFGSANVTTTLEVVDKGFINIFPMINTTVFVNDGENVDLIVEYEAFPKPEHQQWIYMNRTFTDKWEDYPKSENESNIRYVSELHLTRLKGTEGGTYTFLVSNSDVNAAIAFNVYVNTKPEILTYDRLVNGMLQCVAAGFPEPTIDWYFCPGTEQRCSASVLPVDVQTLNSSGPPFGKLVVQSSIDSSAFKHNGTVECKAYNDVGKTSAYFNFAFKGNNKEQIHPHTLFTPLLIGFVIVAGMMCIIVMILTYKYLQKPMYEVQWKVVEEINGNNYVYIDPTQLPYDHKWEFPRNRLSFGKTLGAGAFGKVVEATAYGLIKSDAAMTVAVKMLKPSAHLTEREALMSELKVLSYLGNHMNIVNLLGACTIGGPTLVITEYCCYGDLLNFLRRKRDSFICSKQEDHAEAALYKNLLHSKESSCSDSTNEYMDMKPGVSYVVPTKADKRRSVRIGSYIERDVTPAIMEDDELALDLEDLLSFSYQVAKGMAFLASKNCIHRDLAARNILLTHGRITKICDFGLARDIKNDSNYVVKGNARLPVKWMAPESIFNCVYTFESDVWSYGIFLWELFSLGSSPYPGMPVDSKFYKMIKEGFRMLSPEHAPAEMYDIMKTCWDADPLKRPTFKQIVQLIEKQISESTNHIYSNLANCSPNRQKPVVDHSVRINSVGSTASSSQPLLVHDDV
# Chain of UniProt P49760 (whole entry, looked up): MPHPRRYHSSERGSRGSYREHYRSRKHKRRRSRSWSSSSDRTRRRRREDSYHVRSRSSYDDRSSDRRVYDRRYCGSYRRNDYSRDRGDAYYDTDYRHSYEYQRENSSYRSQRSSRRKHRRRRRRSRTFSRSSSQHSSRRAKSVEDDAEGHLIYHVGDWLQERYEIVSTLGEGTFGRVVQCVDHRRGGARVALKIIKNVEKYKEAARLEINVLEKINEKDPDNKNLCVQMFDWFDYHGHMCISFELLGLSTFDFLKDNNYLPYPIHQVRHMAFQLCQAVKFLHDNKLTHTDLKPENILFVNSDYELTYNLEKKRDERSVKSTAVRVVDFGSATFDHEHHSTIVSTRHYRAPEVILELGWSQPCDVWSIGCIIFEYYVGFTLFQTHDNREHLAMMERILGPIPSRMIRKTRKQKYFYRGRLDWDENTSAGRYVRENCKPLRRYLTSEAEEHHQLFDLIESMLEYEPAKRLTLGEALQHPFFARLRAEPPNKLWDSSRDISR

# Set 1 — cell line: HaCaT; concentration: 100 µM; time: 36 h
SMILES,viability [%]
O=C(O)c1cc(=O)c2ccccc2o1,81.6
C[C@@H](O[C@H]1OCCN(Cc2n[nH]c(=O)[nH]2)[C@H]1c1ccc(F)cc1)c1cc(C(F)(F)F)cc(C(F)(F)F)c1,6.24
CC(=O)OCC(=O)[C@@]1(O)CC[C@H]2[C@@H]3CCC4=CC(=O)CC[C@]4(C)[C@H]3[C@@H](O)C[C@@]21C,80
NCCCC[C@H](NC(=O)[C@@H]1CCCN1C(=O)[C@@H]1CSSC[C@H](N)C(=O)N[C@@H](Cc2ccccc2)C(=O)N[C@@H](Cc2ccccc2)C(=O)N[C@@H](CCC(N)=O)C(=O)N[C@@H](CC(N)=O)C(=O)N1)C(=O)NCC(N)=O,88.6

# Set 2 — species: human; sample: microsomes or S9; concentration: 2 µM; time: 0.5 h
Compound,remaining compound [%]
CCOC(=O)Cc1c(C)nc2cc(-c3ccc(C)cc3)nn2c1O,49.9
Nc1ccc2nn(-c3ccccc3)nc2c1Br,93.7
COc1ccc(-c2nnc(N)n2-c2ccc(C)cc2)c(OC)c1,> 100
CCC(NC(=O)NCCc1cnn(C)c1C)c1c(C)noc1C (stereo not drawn),75.7

# Set 3 — method: competition with immobilised ligand; concentration: 1 µM
# SMILES: NS(=O)(=O)c1cc(NC(=O)C2(c3ccccc3Cl)CC2)ccc1Oc1cccc(Cl)c1
target,assay,remaining binding [%]
"IKBKE (Homo sapiens, UniProt Q14164)",cell-free assay,70
"VRK2 (Homo sapiens, UniProt Q86Y07)",cell-free assay,100
"Myosin-IIIb (MYO3B, Homo sapiens, UniProt Q8WXR4)",binding,29
"CLK2 (Homo sapiens, UniProt P49760)",cell-free assay,97
"NEK7 (Homo sapiens, UniProt Q8TDX7)",cell-free assay,90
"EIF2AK2 (Homo sapiens, UniProt P19525)",cell-free assay,100
"MKNK1 (Homo sapiens, UniProt Q9BUB5)",cell-free assay,99
"CDK15 (Homo sapiens, UniProt Q96Q40)",cell-free assay,98
"FLT1 (Homo sapiens, UniProt P17948)",cell-free assay,100
"LTK (Homo sapiens, UniProt P29376)",cell-free assay,73
"GAK (Homo sapiens, UniProt O14976)",cell-free assay,76
"RET (Homo sapiens, UniProt P07949, M918T)",cell-free assay,71
"MAP2K6 (Homo sapiens, UniProt P52564)",cell-free assay,96
"EPHA1 (Homo sapiens, UniProt P21709)",cell-free assay,100
"PDGFRB (Homo sapiens, UniProt P09619)",cell-free assay,90
"CDK2 (Homo sapiens, UniProt P24941)",cell-free assay,82
"KIT (Homo sapiens, UniProt P10721, D816H)",cell-free assay,86
"CAMK1 (Homo sapiens, UniProt Q14012)",cell-free assay,100
"ACVR2A (Homo sapiens, UniProt P27037)",cell-free assay,96
"TNNI3K (Homo sapiens, UniProt Q59H18)",cell-free assay,72
"MAPKAPK2 (Homo sapiens, UniProt P49137)",cell-free assay,90
"Aurora kinase A (AURKA, Homo sapiens, UniProt O14965)",cell-free assay,100
"EGFR (Homo sapiens, UniProt P00533, L858R/T790M)",cell-free assay,88
"EGFR (Homo sapiens, UniProt P00533, A750P/del747-749)",cell-free assay,96
"PIK3C3 (Homo sapiens, UniProt Q8NEB9)",cell-free assay,89

# Set 4 — organism: Sarcocystis neurona; effect on: parasite growth; concentration: 10 µM; setting: secondary screen
SMILES,inhibition [%]
CN1CCN(CCCN2c3ccccc3Sc3ccc(Cl)cc32)CC1,-6.9
C=C1/C(=C\C=C2/CCC[C@]3(C)[C@@H]([C@H](C)/C=C/[C@@H](O)C4CC4)CC[C@@H]23)C[C@@H](O)C[C@@H]1O,-28.1
Nc1nc(N)c2nc(-c3ccccc3)c(N)nc2n1,-85.6
C[C@@H](c1ncncc1F)[C@](O)(Cn1cncn1)c1ccc(F)cc1F,-23.6
Cc1c(C(=O)NN2CCCCC2)nn(-c2ccc(Cl)cc2Cl)c1-c1ccc(I)cc1,94.2

# Set 5 — method: PRP chromatography; setting: linear fit, 1 mL
SMILES,"logD 1,9-decadiene/water [log units]"
CC(C)C[C@@H]1NC(=O)[C@H](Cc2cscn2)NC(=O)[C@H](CCC(=O)N2CCCC2)NC(=O)[C@H](CC(C)C)NC(=O)[C@@H](CCC(=O)N2CCCC2)NC(=O)[C@H](CC(C)C)NC(=O)[C@@H](CC(C)C)NC1=O,-4.9
CC(C)C[C@@H]1NC(=O)[C@H](CC(C)C)NC(=O)[C@H](CC(C)C)NC(=O)[C@@H](C)NC(=O)[C@H](C(C)C)NC(=O)[C@H](C)NC(=O)[C@H](C)NC1=O,-2.32
CC(C)C[C@@H]1NC(=O)[C@@H](C)NC(=O)[C@H](Cc2cscn2)NC(=O)[C@H](C)NC(=O)[C@H](C(C)C)NC(=O)[C@H](CC(C)C)NC(=O)[C@@H](CC(C)C)NC1=O,-1.82
CC(C)C[C@@H]1NC(=O)[C@H](CC(C)C)NC(=O)[C@@H](CC(C)C)NC(=O)[C@H](C(C)C)NC(=O)[C@@H](Cc2cscn2)NC(=O)[C@@H](CC(C)C)NC(=O)[C@H](C)NC1=O,-0.619

# Set 6 — effect on: binding; concentration: 1 µM
# SMILES: COc1ccc2[nH]c3c4[nH]c5ccc(OC)cc5c4c4c(c3c2c1)C(=O)NC4=O
target,assay,remaining binding [%]
"SLK (Homo sapiens, UniProt Q9H2G2)",competition with immobilised ligand,96
"MAP2K5 (Homo sapiens, UniProt Q13163)",competition with immobilised ligand,0.7
"ABL1 (Homo sapiens, UniProt P00519, Q252H)",,28
"ROCK2 (Homo sapiens, UniProt O75116)",,73

# Set 7 — cell line: HEK293T ATF4-firefly luciferase reporter; effect on: integrated stress response; item: ATF4; relative to: DMSO
# SMILES: Ic1ccc(Nc2nc(NCCN3CCOCC3)nc(N3CCOCC3)n2)cc1
conditions,reporter signal
"1 µM, added: ISRIB",86.2% and 80.7% and 72.1% and 76.7% and 83.2% and 65.8% and 88.8% and 76.5%
"1 µM, without ISRIB",126% and 113% and 106% and 118% and 102% and 119% and 120%
"10 µM, without ISRIB",147% and 142% and 131% and 158% and 129% and 125% and 145%

# Mixed results — effect on: cell-free assay; concentration: 0.5 µM
# Target: Cyclin-dependent kinase 2, with cyclin E (CDK2, Homo sapiens, UniProt P24941)
SMILES,remaining signal [%]
O=C1Cc2c([nH]c3ccc([N+](=O)[O-])cc23)-c2ccccc2N1,19.6
Cc1ccc(NC2=CC(=O)c3sc(C)nc3C2=O)cc1,72.9
